{"data": "Measured values gathered from unrelated publications", "note": "Every numbered part comes from another study and shows a few of its results, in no order."}
{"data": "Block 1", "cell line": "HEK-293T/ACE2", "observed": "pseudovirus infection", "organism": "VSV pseudotyped with SARS-CoV-2 spike", "concentration": "concentration not given", "relative to": "vehicle-treated"}
{"SMILES": "CNC(=O)c1cc(Oc2ccc(NC(=O)Nc3ccc(Cl)c(C(F)(F)F)c3)c(F)c2)ccn1", "GFP-positive cells": "89.7%"}
{"SMILES": "CNC(=O)c1cnn(-c2nc(N)c3ncn([C@@H]4O[C@H](CO)[C@@H](O)[C@H]4O)c3n2)c1", "GFP-positive cells": "82.5%"}
{"SMILES": "CC(=O)OC(C)OC(=O)C(C)c1ccc(-c2ccccc2)c(F)c1 (stereo not shown)", "GFP-positive cells": "81.1%"}
{"data": "Block 2", "target": "RNA binding protein fox-1 homolog 2, RRM domain, GST-SBP tag (RBFOX2, Homo sapiens, UniProt O43251-10, residues 100-194)", "method": "RNA Bind-n-Seq", "molecule type": "RNA", "matrix": "in vitro", "concentration": "365 nM", "setting": "natural RNA segment, single round, ends assumed", "relative to": "no-protein control", "reading": "higher = stronger binding", "all sequences stand within": "GGGAGUUCUACAGUCCGACGAUC … UGGAAUUCUCGGGUGCCAA", "Residues (chain)": "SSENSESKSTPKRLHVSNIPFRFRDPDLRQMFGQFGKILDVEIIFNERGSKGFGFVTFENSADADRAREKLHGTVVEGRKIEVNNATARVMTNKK"}
{"Oligonucleotide": "UAUCUGGGGGCACAUAGGUGAGUCUGCUCCACUCAGAAGGAAGCAUACCUCUGCCCUCAUCCAGGGGACACAGGGUACAUCCCAGGCAUCGGGGAACUGAAGCUCUCACU", "RBNS enrichment (R)": 0.249}
{"Oligonucleotide": "GAGGGAGAGGUGGUGUGGCUUGCCCUGCUGAGCCUUCUCGGCAGGAAUAAUAGUAAUAAAUGCACUUUUCACACUAAAAGUUUCUUUGUUCUCCUGUUAAGCCUAGAUCU", "RBNS enrichment (R)": 0.29}
{"Oligonucleotide": "AUGCCCUGUGCCUCUUGAGCAGAAAAGAGCACUGACAACUGGGACACCUGGCUCUGUCUUCCUACAGCUGCUCGCACUGACCUGUGGGAACCUGUGGGUCAUCCCCAGGC", "RBNS enrichment (R)": 0.334}
{"Oligonucleotide": "CCAACUUGCUUAAAGAGGAAUCACUUAAAAGGUAGGCAUAUCUAAGAUGCUCAUAGAAGAGGAAGAAUGGGACAUGGCCCCAUGCUUAUUUUUGUUUACAACGUAACAUG", "RBNS enrichment (R)": 0.483}
{"Oligonucleotide": "CUUUAUUUUUAUGCUAACAACCUUAUUUAAUUAAAAGUGCUGAAACCUGGCAAACUUCUCUAGCAUGUGCUGAAUGGGAGUGUCAGCUGCCAGGGAGCCUUAGGACCCCA", "RBNS enrichment (R)": 8.53}
{"Oligonucleotide": "CCAGCCAGUUGCCUUUGCUCAGAACUCCAUGGGGGUCUUCCCUUUCCAGCAGACCGGGUGCAUCCCUUUUCCUAAUACCUAAUAAAGAGCUUGACAGUGAUAUCCGCCAU", "RBNS enrichment (R)": 0.903}
{"Oligonucleotide": "CUCUGGCCAUCAGUCCUGGUGCCAGAGCUUUGCGUGAAGUUCGGGCCGCAGAGUGGCCCGCUGGGACUCCCAUGUGCUGCCGUCUGAUGUGCUCAGAUGGGCUCAUCGUU", "RBNS enrichment (R)": 0.247}
{"Oligonucleotide": "GGGUCCAGAUGGCUGUCAGGAAGAUGACAAGGUAGGGAGGUAAGGACCGUGUUUGGAGGCUUCUGGUAUCCUAAACACCAAGAUCCACUCAGCCCUGUGCCCUGAUGAUG", "RBNS enrichment (R)": 0.446}
{"data": "Block 3", "target": "Replicase polyprotein 1ab, main protease (rep, Severe acute respiratory syndrome coronavirus 2, UniProt P0DTD1)", "observed": "enzyme activity", "action": "inhibitor", "concentration": "20 µM", "setting": "hit confirmation, no DTT"}
{"Structure (SMILES)": "COC(=O)/C=C/c1cc(O)ccc1O", "inhibition": "52.7%"}
{"Structure (SMILES)": "O=C1C(Cl)=C(Cl)C(=O)C(Cl)=C1Cl", "inhibition": "110%"}
{"Structure (SMILES)": "CCN(CC)C(=S)S", "inhibition": "91.8%"}
{"data": "Block 4", "target": "Replicase polyprotein 1ab, nsp13 helicase (rep, Severe acute respiratory syndrome coronavirus 2, UniProt P0DTD1)", "observed": "helicase activity", "action": "inhibitor", "method": "DTT high-content helicase", "organism": "SARS-CoV-2", "concentration": "20 µM"}
{"Structure (SMILES)": "O=S(=O)(O)c1ccc(-c2c3nc(c(-c4ccc(S(=O)(=O)O)cc4)c4ccc([nH]4)c(-c4ccc(S(=O)(=O)O)cc4)c4nc(c(-c5ccc(S(=O)(=O)O)cc5)c5ccc2[nH]5)C=C4)C=C3)cc1", "inhibition [%]": 36.9}
{"Structure (SMILES)": "CC(C)(C)c1ccc(S(=O)(=O)/C=C/C#N)cc1", "inhibition [%]": -9.44}
{"Structure (SMILES)": "CN=c1nc(-c2ccccc2)n(-c2ccccc2)s1", "inhibition [%]": -3.61}
{"Structure (SMILES)": "O=[N+]([O-])C=Cc1ccc2c(c1)OCO2", "inhibition [%]": -9.73}
{"Structure (SMILES)": "Cc1ccc(-n2sc(=O)n(Cc3ccc(F)cc3)c2=O)cc1", "inhibition [%]": -7.2}
{"Structure (SMILES)": "Cc1nc(C#Cc2ccnc(Cl)c2)c(C)n1-c1ccc(OC(F)(F)F)cc1", "inhibition [%]": -1.97}
{"Structure (SMILES)": "O=c1[nH]nc(Sc2ncc([N+](=O)[O-])s2)n1-c1ccc2c(c1)OCCO2", "inhibition [%]": -5.95}
{"Structure (SMILES)": "Cc1ccc(S(=O)(=O)/C=C/C#N)cc1", "inhibition [%]": -12.6}
{"Structure (SMILES)": "O=Nc1ccc(O)c2ncccc12", "inhibition [%]": -12.4}
{"Structure (SMILES)": "CCN(CC)C(=S)S", "inhibition [%]": -1.37}
{"Structure (SMILES)": "Nc1nnc(Sc2ncc([N+](=O)[O-])s2)s1", "inhibition [%]": -9.08}
{"Structure (SMILES)": "O=C(/C=C/c1ccc2ccccc2n1)c1ccncc1", "inhibition [%]": -7.03}
{"Structure (SMILES)": "C=CC(=O)c1ccc2ccccc2c1", "inhibition [%]": -8.9}
{"Structure (SMILES)": "O=C(O)[C@@H](S)[C@@H](S)C(=O)O", "inhibition [%]": 18.9}
